Published values from different studies.
Each line is one published result; not all experiments were run side by side. ± gives the spread as reported.
Cell line: HepG2

| SMILES | read-out | technique | time | notes | IC50 |
| --- | --- | --- | --- | --- | --- |
| O=C1C=CC(=C(c2ccc(O)cc2)c2c(C#Cc3ccc(O)cc3)cccc2-c2ccc(O)cc2)C=C1 | cell growth or viability | MTT | 48 h |  | 13.3 µM |
| Cc1ccc(C(C)C)cc1.Cc1ccc(C(C)C)cc1.Cc1ccc(C(C)C)cc1.Cc1ccc(C(C)C)cc1.O=S(=O)(O)C(F)(F)F.O=S(=O)(O)C(F)(F)F.O=S(=O)(O)C(F)(F)F.O=S(=O)(O)C(F)(F)F.c1ccc2c3c4ccccc4c(c2c1)-c1cn(nn1)-c1cc[n+](cc1)[Ru-]1[O]c2ccc4c5c(ccc(c25)=[O+]1)=[O+][Ru-]([O]4)[n+]1ccc(cc1)-n1cc(nn1)-c1c2ccccc2c(c2ccccc12)-c1cn(nn1)-c1cc[n+](cc1)[Ru-]1[O]c2ccc4c5c(ccc(c25)=[O+]1)=[O+][Ru-]([O]4)[n+]1ccc(cc1)-n1cc-3nn1 | cell growth | MTT | 24 h | 20 µM preincubated in medium 0 h at 37 °C | 2 ± 0.01 µM |
| CC[C@H](C)[C@@H]1NC(=O)[C@@H]2CCCN2C(=O)[C@H](C)NC(=O)[C@H](CC(C)C)NC(=O)[C@@H]2CCCN2C(=O)[C@H](C)NC(=O)[C@@H]2CSSC[C@H](NC(=O)[C@H](C)NC(=O)[C@H](C)NC(=O)[C@H](Cc3ccc(O)cc3)NC(=O)[C@@H]3CCCN3C(=O)CNC(=O)[C@H](Cc3c[nH]c4ccccc34)NC1=O)C(=O)N[C@@H](CC(C)C)C(=O)N[C@@H](CO)C(=O)N[C@@H](C)C(=O)N[C@H]1CSSC[C@H](NC(=O)[C@H](C(C)C)NC(=O)[C@@H]3CCCN3C(=O)CNC(=O)CNC(=O)CNC(=O)[C@H](C)NC(=O)[C@H](C)NC(=O)[C@H](CC(C)C)NC1=O)C(=O)N[C@@H](CC(C)C)C(=O)N[C@@H](C)C(=O)N[C@@H](C(C)C)C(=O)N2 |  |  |  |  | > 128 µg/mL |
| CC1CCC2C(C)C(CCCOC(=O)C(Cc3ccc(N(CCCl)CCCl)cc3)NC(=O)OC(C)(C)C)OC3OC4(C)CCC1C32OO4 (stereo not drawn) | cell growth or viability | CCK-8 |  |  | 0.76 µM |
| c1cnc2c(c1)c1nccnc1c1cccnc12 | cell growth or viability | MTT | 48 h |  | > 50 µM |
| Nc1c(C(=O)N2CCCCC2)sc2nc(-c3ccccc3)cc(C(F)(F)F)c12 | cell growth or viability |  | 72 h |  | > 100 µM |
| O[C@]12C=C(c3nccc4c3[nH]c3ccccc34)[C@@H]3CCN(CCCC/C=C\CC1)C[C@@]31C[C@@H]3/C=C\CCCCN3[C@H]12 | cell growth or viability | neutral red | 48 h |  | 4.4 µg/mL |
| Cc1ccc2c(Cl)cc(Cl)c([O-])c2n1.Cc1ccc2c(Cl)cc(Cl)c([O-])c2n1.[Co+2].c1cnc2c(c1)c1nccnc1c1cccnc12 | cell growth or viability | MTT | 48 h |  | 3.69 µM |
| O=C1C=CC(=O)c2ccccc21 | cell growth or viability | MTT |  |  | 32.5 µM |
| C[C@H]1[C@H](OC(=O)CCC(=O)OCCC2CCN(CC(=O)Nc3ccc([N+](=O)[O-])c(C(F)(F)F)c3)CC2)O[C@@H]2O[C@@]3(C)CC[C@H]4[C@H](C)CC[C@@H]1[C@@]24OO3 | cell growth or viability | CCK-8 |  |  | > 50 µM |
| O=C1C(Cl)=C(Cl)C(=O)c2ccccc21 | cell growth or viability | MTT |  |  | 110 µM |
| NC(=O)c1cccc2c3c([nH]c12)CCC(N)C3 (stereo not drawn) | cell growth or viability |  |  |  | 0.2 µM |

Excerpt of the above:
| SMILES | read-out | technique | time | notes | IC50 |
| --- | --- | --- | --- | --- | --- |
| O=C1C=CC(=C(c2ccc(O)cc2)c2c(C#Cc3ccc(O)cc3)cccc2-c2ccc(O)cc2)C=C1 | cell growth or viability | MTT | 48 h |  | 13.3 µM |
| Cc1ccc(C(C)C)cc1.Cc1ccc(C(C)C)cc1.Cc1ccc(C(C)C)cc1.Cc1ccc(C(C)C)cc1.O=S(=O)(O)C(F)(F)F.O=S(=O)(O)C(F)(F)F.O=S(=O)(O)C(F)(F)F.O=S(=O)(O)C(F)(F)F.c1ccc2c3c4ccccc4c(c2c1)-c1cn(nn1)-c1cc[n+](cc1)[Ru-]1[O]c2ccc4c5c(ccc(c25)=[O+]1)=[O+][Ru-]([O]4)[n+]1ccc(cc1)-n1cc(nn1)-c1c2ccccc2c(c2ccccc12)-c1cn(nn1)-c1cc[n+](cc1)[Ru-]1[O]c2ccc4c5c(ccc(c25)=[O+]1)=[O+][Ru-]([O]4)[n+]1ccc(cc1)-n1cc-3nn1 | cell growth | MTT | 24 h | 20 µM preincubated in medium 0 h at 37 °C | 2 ± 0.01 µM |
